Experimental data from different studies.
Protocols differ between the studies behind these lines. Converted amounts (≈) assume the structure as drawn.

Structure (SMILES) | organism | assay | test system | setting | scale | quantity | value
COc1cc(OC(C)=O)c2cc3c(cc2c1OC(C)=O)CCCC3(C)C | Leishmania infantum |  | intracellular amastigotes, ex vivo mouse splenic explants |  | reference: HepG2 CC50 over amastigote EC50 | selectivity index | 2.8
CC(C)C[C@@H]1NC(=O)[C@H](CCCCN)NC(=O)[C@H](C(C)C)NC(=O)[C@@H]2CCCN2C(=O)[C@@H](Cc2ccc(O)cc2)NC(=O)[C@H](CC(C)C)NC(=O)[C@H](CCCCN)NC(=O)[C@H](C(C)C)NC(=O)[C@H](CCCCN)NC(=O)[C@H](CC(C)C)NC(=O)[C@@H]2CCCN2C(=O)[C@@H](Cc2ccc(O)cc2)NC(=O)[C@H](C(C)C)NC1=O | fungi |  |  | 24 h, 2 strains |  | MIC geometric mean | 5.7 µg/mL
CCNC1=CC(=O)c2cc3c(cc2C1=O)CCCC3(C)C | Leishmania infantum |  | promastigotes |  | reference: HepG2 CC50 over promastigote EC50 | selectivity index | 7.5
COC1=CC(c2ccc[nH]2)=NC1=CNC1CCCCCCC1 | Plasmodium yoelii |  | Kenya strain MRA-428, mice | oral, 100 mg/kg daily for 4 days, day 5 |  | parasitaemia suppression | 100%
Cc1nccc2c3ccccc3n(Cc3cccnc3)c12 | Echinococcus granulosus sensu stricto |  | protoscoleces | 200 µM, 48 h |  | killed protoscoleces | > 90%
COC1=CC(c2ccc[nH]2)=NC1=Cc1[nH]c(Cc2ccc(Cl)cc2)cc1Cc1ccc(Cl)cc1 | Plasmodium yoelii |  | Kenya strain MRA-428, mice | oral, 100 mg/kg daily for 4 days, day 5 |  | parasitaemia suppression | 100%
Nc1ccn(C[C@@H](CO)OCP(=O)(O)OCCCS(=O)(=O)CCCCCCCCCCC2CCC2)c(=O)n1 | human gammaherpesvirus 4 | qPCR | Akata |  | reference: CC50 over EC50 | selectivity index | > 3
C[C@@H](c1ccn(Cc2cc(F)cc(F)c2)n1)[C@](O)(Cn1cnnn1)c1ccc(F)cc1F | Aspergillus fumigatus | growth, broth microdilution | 7544 | 48 h, 35 °C, ≥50% inhibition |  | MIC | 16 µg/mL (≈ 35.8 µM)
Oc1c(Br)cc(Br)c2nc3c(C(F)(F)F)cc(C(F)(F)F)cc3nc12 | Staphylococcus epidermidis | Calgary biofilm device | 12228 |  |  | MBEC | 0.15 µM
Fc1ccc2c(c1)c1nc3ccc(Br)cc3c-1cn2Cc1cn(-c2ccccc2I)nn1 | Giardia duodenalis trophozoites | UHPLC-Q-TOF-MS, item: TG(20:4/20:5/20:5) isomer 3 |  | IC50, 0.1413 h | reference: 0.25% DMSO | fold change | 9.4
CC(C)C[C@@H]1NC(=O)[C@H](CCCCN)NC(=O)[C@H](C(C)C)NC(=O)[C@H](CCCCN)NC(=O)[C@@H]2CCCN2C(=O)[C@@H](Cc2ccc(O)cc2)NC(=O)[C@H](CCCCN)NC(=O)[C@H](CCCCN)NC(=O)[C@H](C(C)C)NC(=O)[C@@H]2CCCN2C(=O)[C@@H](Cc2ccc(O)cc2)NC1=O | fungi |  |  | 24 h, 2 strains |  | MIC geometric mean | 181 µg/mL
O=C1CC(c2ccc(O)cc2)Oc2cc(O)cc([O][Ga+][O]c3cc(O)cc4c3C(=O)CC(c3ccc(O)cc3)O4)c21 (centres unmarked) | Pseudomonas aeruginosa | RNA-seq | PAO1 | 4 µM, 4 h |  | number of downregulated genes | 778
CC(C)CCCc1ccc2c(c1)C(=O)C(Br)=C(Br)C2=O | Leishmania infantum |  | intracellular amastigotes, ex vivo mouse splenic explants |  | reference: HepG2 CC50 over amastigote EC50 | selectivity index | 0.16
O=S(=O)(c1ccccc1)N(CCc1nnc(S)o1)c1ccccc1 | Aspergillus niger | cup plate method |  | 100 µg/mL | reference: fluconazole | relative inhibition | 38.2%
CNCCCn1c2ccc([N+](=O)[O-])cc2c(=O)n1Cc1ccccc1 | Leishmania amazonensis | parasite growth, resazurin |  | 72 h, promastigote |  | IC50 | 2300 nM
CCCCCCN=Cc1[nH]c(-c2ccc[nH]2)cc1OC | Plasmodium yoelii |  | Kenya strain MRA-428, mice | oral, 5 mg/kg daily for 4 days, day 5 |  | parasitaemia suppression | 90%
CC(=O)N[C@H](CCCCN)C(=O)N[C@H](CC(C)C)C(=O)N[C@H](CCCCN)C(=O)N[C@H](CO)C(=O)N[C@H](CC(C)C)C(=O)N[C@H](CC(C)C)C(=O)N[C@H](CCCCN)C(=O)N[C@@H](C(=O)N[C@H](CC(C)C)C(=O)N[C@H](CO)C(=O)N[C@H](CCCCN)C(=O)N[C@H](C)C(=O)N[C@H](CCCCN)C(=O)N[C@H](CCCCN)C(=O)N[C@H](CCCCN)C(=O)N[C@H](CCCCN)C(=O)N[C@H](CC(C)C)C(=O)N[C@H](CCCCN)C(=O)N[C@@H](C(=O)N[C@H](CC(C)C)C(=O)N[C@H](CC(C)C)C(=O)N[C@H](CCCCN)C(=O)N[C@H](C)C(=O)N[C@H](CC(C)C)C(=O)N[C@H](CO)C(=O)N[C@H](CCCCN)C(N)=O)[C@H](C)O)[C@H](C)O | Acinetobacter baumannii |  | 11 isolates |  |  | MIC geometric mean | 0.4 µM
CC(=O)Oc1cc(C)c(OC(C)=O)c2c1CC=C(CCC=C(C)C)C2 | Leishmania infantum |  | intracellular amastigotes, ex vivo mouse splenic explants |  | reference: HepG2 CC50 over amastigote EC50 | selectivity index | > 55
COc1ccc(-n2c(=O)c(C(=O)C3C(=O)CCCC3=O)nc3ccccc32)cc1 | Schoenoplectus juncoides | herbicidal activity, paddy pot test, visual rating |  | 28 days |  | ED90 | 6.3 g a.i./10 a

Structure (SMILES) | organism | assay | test system | setting | scale | quantity | value
CC(C)C[C@@H]1NC(=O)[C@H](CCCCN)NC(=O)[C@H](C(C)C)NC(=O)[C@@H]2CCCN2C(=O)[C@@H](Cc2ccc(O)cc2)NC(=O)[C@H](CC(C)C)NC(=O)[C@H](CCCCN)NC(=O)[C@H](C(C)C)NC(=O)[C@H](CCCCN)NC(=O)[C@H](CC(C)C)NC(=O)[C@@H]2CCCN2C(=O)[C@@H](Cc2ccc(O)cc2)NC(=O)[C@H](CCCCN)NC1=O | fungi |  |  | 24 h, 2 strains |  | MIC geometric mean | 5.7 µg/mL
Cc1ncc([N+](=O)[O-])n1CCOCc1nnc(SCC(=O)c2ccc(Cl)cc2)o1 | Serratia marcescens |  | DMSO | 60 µg/mL, 24 h, 37 °C |  | inhibition zone diameter | 15 to 20 mm
CC[C@H](C)[C@H](NC(=O)[C@H](CC(=O)O)NC(=O)[C@@H](NC(=O)[C@H](CC(N)=O)NC(=O)[C@H](CC(N)=O)NC(=O)[C@H](CC(=O)O)NC(=O)[C@H](CCCNC(=N)N)NC(=O)CNC(=O)[C@H](CS)NC(=O)[C@H](CC(=O)O)NC(=O)[C@H](Cc1c[nH]cn1)NC(=O)[C@@H]1CCCN1C(=O)[C@H](CC(C)C)NC(=O)[C@@H]1CCCN1C(=O)[C@H](CC(N)=O)NC(=O)[C@H](Cc1ccc(O)cc1)NC(=O)[C@@H](N)Cc1ccc(O)cc1)[C@@H](C)O)C(=O)N[C@@H](CS)C(=O)N[C@@H](CO)C(=O)N[C@@H](CCCNC(=N)N)C(=O)O | Escherichia coli, Acinetobacter baumannii, Pseudomonas aeruginosa |  |  |  |  | MBC | > 128 µM
CCCCCCCCCC1CC2CCCC3CC(CCCCCCCCC)NC(=N1)N23 (centres unmarked) | Aspergillus fumigatus | fungal growth | ATCC 204305 |  |  | MFC | 23.2 µM (≈ 10 µg/mL)
COc1ccc(-n2c(=O)c(C(=O)C3C(=O)CCCC3=O)nc3c(Cl)cccc32)cc1 | Schoenoplectus juncoides | herbicidal activity, paddy pot test, visual rating |  | 28 days |  | ED90 | 6.3 g a.i./10 a
Brc1ccc(-c2c[nH]c(-c3ccccn3)n2)cc1 | Schistosoma mansoni |  | adult male worms | 50 µM |  | worm killing | 88%
Cc1ccc(S(=O)(=O)N(CCc2nnc(S)o2)c2ccccc2)cc1 | Aspergillus niger | cup plate method |  | 100 µg/mL | reference: fluconazole | relative inhibition | 20.7%
COc1ccc(-c2nc(-c3ccccc3OC)[nH]c2-c2ccc(OC)cc2)cc1 | Schistosoma mansoni |  | female worms | 10 µM |  | worm killing | 0%
C=C(C)[C@@H]1CC[C@]2(C(=O)NC(CO)Cc3ccccc3)CC[C@]3(C)[C@H](CC[C@@H]4[C@@]5(C)CCCNC(C)(C)[C@@H]5CC[C@]43C)[C@@H]12 (some centres unmarked) | Human papillomavirus 11 | viral replication, luciferase reporter | C-33 A |  |  | EC90 | > 240 nM
CC(=O)[O-].O.[Cu+2].[O-]c1ccc(Br)cc1C=NCCN1CCOCC1 | Shigella flexneri |  |  | 20 µL of 100 µM per disc |  | inhibition zone diameter | 22 mm
CC(=O)Oc1ccc(OC(C)=O)c2cc3c(cc12)CCCC3(C)C | Leishmania infantum |  | promastigotes |  | reference: HepG2 CC50 over promastigote EC50 | selectivity index | 1.8
CN[C@H](CC(C)C)C(=O)N[C@H]1C(=O)N[C@@H](CC(N)=O)C(=O)N[C@H]2C(=O)N[C@H]3C(=O)N[C@H](C(=O)N[C@H](C(=O)O)c4cc(O)cc(O)c4-c4cc3ccc4O)[C@H](O)c3ccc(c(Cl)c3)Oc3cc2cc(c3O[C@@H]2O[C@H](CO)[C@@H](O)[C@H](O)[C@H]2O[C@H]2C[C@](C)(NCc3ccc(C(=O)OCCCCCCN(Cc4ccccn4)Cc4ccccn4)cc3)[C@H](O)[C@H](C)O2)Oc2ccc(cc2Cl)[C@H]1O | Bacillus subtilis | growth retardation | 168 | concentration not given |  | physiologically effective concentration | 0.75 × MIC
COC1=CC(c2ccc[nH]2)=NC1=CNC1CCCC1 | Plasmodium yoelii |  | Kenya strain MRA-428, mice | oral, day 5, dosed 4 days |  | ED50 | < 5 mg/kg/day
CNC(CC(C)C)C(=O)NC1C(=O)NC(CC(N)=O)C(=O)NC2C(=O)NC3C(=O)NC(C(=O)NC(C(=O)NCCCNC(=N)N)c4cc(O)cc(O)c4-c4cc3ccc4O)C(O)c3ccc(c(Cl)c3)Oc3cc2cc(c3OC2OC(CO)C(O)C(O)C2OC2CC(C)(NCc3ccc(-c4ccc(Cl)cc4)cc3)C(O)C(C)O2)Oc2ccc(cc2Cl)C1O (centres unmarked) | Enterococcus faecalis and Enterococcus faecium |  | VanA BM4166 and ATCC BAA-2317 | with: lipoteichoic acid 100 µg/mL | reference: without lipoteichoic acid | MIC fold increase | 8 fold
CCc1c(C)[nH]c(C=NC23CC4CC(CC(C4)C2)C3)c1C | Plasmodium yoelii |  | Kenya strain MRA-428, mice | oral, 50 mg/kg daily for 4 days, day 5 |  | parasitaemia suppression | 67%
C=C(C)[C@@H]1CC[C@]2(C(N)=O)CC[C@]3(C)[C@H](CC[C@@H]4[C@@]5(C)CCCNC(C)(C)[C@@H]5CC[C@]43C)[C@@H]12 | Human papillomavirus 11 | viral replication, luciferase reporter | C-33 A |  |  | EC90 | > 1200 nM
Cc1cc(=O)oc2c(F)c(OC3C=CC(=O)O3)c(F)cc12 (racemic) | Pisum sativum |  | rms1-10 mutant | applied to axillary bud, 5 µM |  | shoot branching inhibition | inactive
Cc1ncc([N+](=O)[O-])n1CCOCc1nnc(SCC(=O)c2ccc(F)cc2)o1 | Serratia marcescens |  | DMSO | 60 µg/mL, 24 h, 37 °C |  | inhibition zone diameter | 10 to 15 mm
C[C@@H](c1ccn(Cc2cccc(F)c2F)n1)[C@](O)(Cn1cnnn1)c1ccc(F)cc1F | Aspergillus fumigatus | growth, broth microdilution | 7544 | 48 h, 35 °C, ≥50% inhibition |  | MIC | > 64 µg/mL

Excerpt of the above:
Structure (SMILES) | organism | assay | test system | setting | scale | quantity | value
CC(C)C[C@@H]1NC(=O)[C@H](CCCCN)NC(=O)[C@H](C(C)C)NC(=O)[C@@H]2CCCN2C(=O)[C@@H](Cc2ccc(O)cc2)NC(=O)[C@H](CC(C)C)NC(=O)[C@H](CCCCN)NC(=O)[C@H](C(C)C)NC(=O)[C@H](CCCCN)NC(=O)[C@H](CC(C)C)NC(=O)[C@@H]2CCCN2C(=O)[C@@H](Cc2ccc(O)cc2)NC(=O)[C@H](C(C)C)NC1=O | fungi |  |  | 24 h, 2 strains |  | MIC geometric mean | 5.7 µg/mL
COC1=CC(c2ccc[nH]2)=NC1=CNC1CCCCCCC1 | Plasmodium yoelii |  | Kenya strain MRA-428, mice | oral, 100 mg/kg daily for 4 days, day 5 |  | parasitaemia suppression | 100%
C=C(C)[C@@H]1CC[C@]2(C(N)=O)CC[C@]3(C)[C@H](CC[C@@H]4[C@@]5(C)CCCNC(C)(C)[C@@H]5CC[C@]43C)[C@@H]12 | Human papillomavirus 11 | viral replication, luciferase reporter | C-33 A |  |  | EC90 | > 1200 nM
